Results gathered from unrelated publications.
Every numbered part comes from another study and shows a few of its results, in no order. Changes are numbered by the printed parent chain.

Set 1
Target: ABI1, truncated, D143A, DHFR fusion (Arabidopsis thaliana)
Technique: DHFR PCA, deep sequencing
Sample: yeast
Notes: methotrexate growth selection, single substitutions
Added: (+)-ABA 0.0091 µM
Baseline: wild-type fitted maximum
Direction: higher = stronger binding
Measurement: relative binding score
Starting sequence: PYL1, truncated, DHFR fusion (Arabidopsis thaliana); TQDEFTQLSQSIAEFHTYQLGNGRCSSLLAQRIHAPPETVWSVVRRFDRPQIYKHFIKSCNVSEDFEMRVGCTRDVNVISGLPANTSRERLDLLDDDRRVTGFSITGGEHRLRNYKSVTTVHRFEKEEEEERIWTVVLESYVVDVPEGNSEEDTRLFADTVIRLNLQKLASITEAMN; partner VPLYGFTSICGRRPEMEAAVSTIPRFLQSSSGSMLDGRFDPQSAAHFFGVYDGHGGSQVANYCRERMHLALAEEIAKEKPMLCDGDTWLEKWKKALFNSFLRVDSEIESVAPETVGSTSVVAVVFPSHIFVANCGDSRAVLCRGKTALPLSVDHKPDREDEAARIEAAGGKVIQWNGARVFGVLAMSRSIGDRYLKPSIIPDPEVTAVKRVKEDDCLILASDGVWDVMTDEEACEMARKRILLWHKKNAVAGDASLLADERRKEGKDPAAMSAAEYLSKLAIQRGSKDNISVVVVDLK
K168W: 12.1%
I57A: -5.09%
V121N: -6.24%
K168Q: 6.44%
N85Q: 56.6%
R90A: -1.42%
S117A: 2.21%
A13H: 15.7%
E147Q: 16%
Y18M: 1.61%
L169D: -4.15%
I12F: -4.9%
I33W: -3.41%
P83Q: 18.3%
Q7H: 25.6%
N165G: 1.36%
A30I: 8.78%

Set 2
Target: Interferon regulatory factor 7, full length, phosphomimetic (IRF7, Homo sapiens, UniProt Q92985, residues 1-503, S101K/S471D/S472D/S475D/S476D/S477D/S483D/S484D/S487D)
Chain of UniProt Q92985 (whole entry, unmodified, looked up): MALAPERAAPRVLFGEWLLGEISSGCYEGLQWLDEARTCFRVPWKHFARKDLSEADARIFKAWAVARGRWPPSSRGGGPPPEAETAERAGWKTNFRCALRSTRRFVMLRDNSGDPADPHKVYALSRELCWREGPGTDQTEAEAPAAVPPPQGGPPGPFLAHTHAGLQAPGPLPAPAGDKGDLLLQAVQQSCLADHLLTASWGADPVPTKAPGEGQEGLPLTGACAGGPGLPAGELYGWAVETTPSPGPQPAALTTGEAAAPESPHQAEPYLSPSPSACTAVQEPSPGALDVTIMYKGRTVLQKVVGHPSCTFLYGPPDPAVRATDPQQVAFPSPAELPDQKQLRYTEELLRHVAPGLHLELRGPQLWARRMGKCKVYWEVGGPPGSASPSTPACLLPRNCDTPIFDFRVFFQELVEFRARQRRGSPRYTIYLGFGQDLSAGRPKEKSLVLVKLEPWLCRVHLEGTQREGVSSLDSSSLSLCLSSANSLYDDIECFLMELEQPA
Technique: protein-binding microarray
Molecule type: double-stranded DNA, one strand shown
Sample: in vitro
Tested at: 250 nM
Notes: 60-bp whole probe
Added: salmon DNA 0.4 mg/ml
Baseline: random background probes
Direction: higher = stronger binding
Measurement: log fluorescence
Shared flanks, not repeated: GCCTAGCAC … GTCTTGATTCGCTTGACGCTGCTG
TTAGACATCAGTTTCGATTAGTGCTAG: 8.62 z-score
TTAGAACTGGGGACTGGAGTAGTGCTA: -0.534 z-score
ACTAGCTTCCATTTTCTGAAGTGCTAG: 0.283 z-score
TGGATACTTTGCTGAACATCGTGCTAG: -0.298 z-score
TACCTTTTCACTTTACACACGTGCTAG: 2.29 z-score
CACGGACTGGGGTTTCGGGACGTGCTA: 0.919 z-score
GACAGACTGGACTATCGGGACGTGCTA: -0.546 z-score
GTTACTTTCTACTTCTCTTTGTGCTAG: 2.36 z-score
CGTACTGTATCTAGCCTTGCGTGCTAG: 0.475 z-score
TCAGTTTTTACTTTCTGACTGTGCTAG: 1.31 z-score
AATCATTTTCGTTTTTATTAGTGCTAG: 6.95 z-score
AACGGTCTCCTTATCCTGACGTGCTAG: 0.464 z-score
CTAATATTCATTTTATTCAAGTGCTAG: 2.03 z-score
TTAGATATCGGGTTTCGATGAGTGCTA: 1.64 z-score

Set 3
Target: Sal-like protein 4, full length isoform A (SALL4, Homo sapiens, UniProt Q9UJQ4, residues 1-1053)
Chain of UniProt Q9UJQ4 (whole entry, looked up): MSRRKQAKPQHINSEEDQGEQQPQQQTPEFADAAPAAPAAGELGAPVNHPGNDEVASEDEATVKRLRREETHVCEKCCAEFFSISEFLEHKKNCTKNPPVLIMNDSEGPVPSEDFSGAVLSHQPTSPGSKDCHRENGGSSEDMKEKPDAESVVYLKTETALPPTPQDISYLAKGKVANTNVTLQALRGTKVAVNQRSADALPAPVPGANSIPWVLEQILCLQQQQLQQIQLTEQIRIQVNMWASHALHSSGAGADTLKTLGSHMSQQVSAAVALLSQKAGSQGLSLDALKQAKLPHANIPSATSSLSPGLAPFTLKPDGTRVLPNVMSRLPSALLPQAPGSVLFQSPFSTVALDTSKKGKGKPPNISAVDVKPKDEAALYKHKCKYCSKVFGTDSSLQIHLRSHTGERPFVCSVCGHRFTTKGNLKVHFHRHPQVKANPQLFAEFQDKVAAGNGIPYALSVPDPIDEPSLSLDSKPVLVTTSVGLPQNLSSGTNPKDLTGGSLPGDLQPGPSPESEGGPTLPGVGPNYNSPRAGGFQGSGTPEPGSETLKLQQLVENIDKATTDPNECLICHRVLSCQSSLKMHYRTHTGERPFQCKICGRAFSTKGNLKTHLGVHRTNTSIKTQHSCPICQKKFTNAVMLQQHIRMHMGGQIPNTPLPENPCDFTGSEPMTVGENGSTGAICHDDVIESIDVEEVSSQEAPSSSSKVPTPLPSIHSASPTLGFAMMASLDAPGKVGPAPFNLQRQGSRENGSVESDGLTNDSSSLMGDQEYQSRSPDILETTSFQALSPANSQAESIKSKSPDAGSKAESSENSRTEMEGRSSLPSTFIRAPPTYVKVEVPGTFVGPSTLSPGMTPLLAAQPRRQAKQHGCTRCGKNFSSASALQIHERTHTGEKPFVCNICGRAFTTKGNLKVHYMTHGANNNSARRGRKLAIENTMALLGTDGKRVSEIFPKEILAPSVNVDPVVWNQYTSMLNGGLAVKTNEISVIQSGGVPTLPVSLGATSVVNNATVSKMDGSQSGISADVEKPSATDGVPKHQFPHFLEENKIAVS
Technique: universal PBM
Molecule type: double-stranded DNA, one strand shown
Sample: in vitro
Tested at: 600 nM
Notes: 8-mer, flanks averaged, mean of replicates
Direction: higher = stronger binding
Measurement: E-score
AGATCAGC: -0.238
TAGCTGCA: -0.126
ACTAAAAA: 0.281
GGGAGGAA: -0.081
CATCGAGA: 0.0116
AACGTAAT: 0.292
ACTTGACC: -0.0693
CAGATAGG: 0.00842
AGCACGCA: -0.148
CCGCCGAC: -0.318
GAGTATAC: 0.14

Mixed results
PhoQ, residues 284 288 289 292 302 303 SSTLSG  fold induction (PhoP, residues 12 14 15 18 19 MHTVL (Escherichia coli, UniProt P23836); Sort-seq, measured: YFP reporter; E. coli; PhoQ-PhoP variant library, added: 10 µM Mg2+; baseline: high Mg2+ state, higher = stronger signaling): 5.43
ASPLKKLFTSTGL  enrichment score (Saccharomyces cerevisiae; peptide binding, yeast competitive growth sequencing; peptide, cyclin E2-Cln2 fusion; library 1; direction not given): -0.664
